# Experimental data pooled from the literature.
# Protocols differ between the studies behind these lines.
# Organism: Pseudomonas aeruginosa
SMILES,assay,system,setting,scale,MIC
CC[C@H](C)[C@H](NC(=O)[C@H](CC(C)C)NC(=O)[C@H](CCCCN)NC(=O)[C@@H](NC(=O)[C@H](C)NC(=O)[C@H](CCC(=O)O)NC(=O)[C@H](Cc1c[nH]cn1)NC(=O)[C@@H](NC(=O)[C@H](CCCCN)NC(=O)[C@H](CCC(N)=O)NC(=O)[C@H](Cc1ccccc1)NC(=O)[C@@H](N)C(C)C)[C@@H](C)CC)[C@@H](C)CC)C(N)=O,CLSI broth microdilution,ATCC 27853,"18 h, 37 °C",,> 128 µM
CC1(C)SC2C(NC(=O)C(NC(=O)C3=C(O)C(Cc4ccsc4)NC3=O)c3ccccc3)C(=O)N2C1C(=O)O (centres unmarked),,fpvA mutant,,,50 µg/mL
CC(C)C[C@@H]1NC(=O)[C@H](Cc2ccccc2)NC(=O)[C@H](Cc2ccc(O)cc2)NC(=O)[C@H](CC(C)C)NC(=O)[C@H](CCC(=O)O)NC(=O)[C@H](Cc2ccccc2)NC(=O)[C@H](CCCNC(=N)N)NC(=O)[C@H](CCC(N)=O)NC(=O)[C@H](CC(C)C)NC(=O)[C@H](CC(=O)O)NC(=O)[C@@H]2CCCN2C(=O)[C@H](CCCCN)NC(=O)[C@H](C(C)C)NC(=O)[C@H](CC(N)=O)NC(=O)[C@H](Cc2ccc(O)cc2)NC(=O)[C@H]([C@@H](C)O)NC(=O)[C@@H](N)CSSC[C@@H](C(=O)O)NC(=O)[C@H]([C@@H](C)O)NC(=O)[C@H](C(C)C)NC(=O)[C@H]([C@@H](C)O)NC(=O)CNC1=O,broth dilution,CGMCC strain,24 h,,> 40 µM
CC[C@H](C)[C@H](NC(=O)CNC(=O)[C@H](CC(=O)O)NC(=O)[C@H](CCCNC(=N)N)NC(=O)[C@@H](NC(=O)[C@H](CC(N)=O)NC(=O)[C@H](CCCNC(=N)N)NC(=O)CNC(=O)[C@@H](NC(=O)[C@H](CCCCN)NC(=O)[C@H](CCC(=O)O)NC(=O)[C@@H](NC(=O)[C@H](CCCCN)NC(=O)[C@H](CCCCN)NC(=O)[C@H](Cc1ccccc1)NC(=O)[C@@H](NC(=O)[C@H](CCCCN)NC(=O)[C@H](Cc1c[nH]c2ccccc12)NC(=O)[C@@H](N)CCC(=O)O)[C@@H](C)CC)[C@@H](C)CC)C(C)C)C(C)C)C(=O)N[C@H](C(=O)N[C@@H](CCCCN)C(=O)N[C@@H](C)C(=O)NCC(=O)N1CCC[C@H]1C(=O)N[C@@H](C)C(=O)N[C@H](C(=O)N[C@@H](C)C(=O)N[C@H](C(=O)N[C@H](C(=O)NCC(=O)N[C@@H](CCC(N)=O)C(=O)N[C@@H](C)C(=O)N[C@@H](C)C(=O)N[C@H](C(=O)N[C@H](C(=O)N[C@H](C(=O)N[C@@H](CCCCN)C(N)=O)C(C)C)C(C)C)[C@@H](C)O)C(C)C)C(C)C)C(C)C)[C@@H](C)CC,,"KCCM 11328, Mueller-Hinton broth","16 h, 37 °C",growth inhibition over 99%,> 64 µM
CC[C@H](C)[C@H](NC(=O)[C@H](CCCNC(=N)N)NC(=O)[C@H](CCCCN)NC(=O)[C@H](Cc1c[nH]c2ccccc12)NC(=O)[C@H](CCC(N)=O)NC(=O)[C@H](Cc1ccccc1)NC(=O)[C@H](Cc1c[nH]c2ccccc12)NC(=O)[C@@H](NC(=O)[C@H](CCCCN)NC(=O)[C@@H](NC(=O)[C@H](CCC(N)=O)NC(=O)[C@@H](N)CCCNC(=N)N)[C@@H](C)CC)[C@@H](C)CC)C(=O)N[C@@H](CCCCN)C(=O)N[C@@H](Cc1c[nH]c2ccccc12)C(=O)N[C@@H](CCCNC(=N)N)C(=O)N[C@@H](CCCNC(=N)N)C(=O)O,,ATCC 27853,,,1.5 µM
CC(C)CC1NC(=O)C(C(=O)NC(C(=O)NC2C(=O)N3C2SC(C)(C)C3C(=O)O)c2ccccc2)=C1O (centres unmarked),,pvdA mutant,,,25 µg/mL
CC[C@H](C)[C@H](NC(=O)CNC(=O)[C@H](CC(=O)O)NC(=O)[C@H](CCCNC(=N)N)NC(=O)[C@@H](NC(=O)[C@H](CC(N)=O)NC(=O)[C@H](CCCNC(=N)N)NC(=O)CNC(=O)[C@@H](NC(=O)[C@H](CCCCN)NC(=O)[C@H](CCC(=O)O)NC(=O)[C@@H](NC(=O)[C@H](CCCCN)NC(=O)[C@H](CCC(=O)O)NC(=O)[C@H](Cc1ccccc1)NC(=O)[C@@H](NC(=O)[C@H](CCCCN)NC(=O)[C@H](Cc1c[nH]c2ccccc12)NC(=O)[C@@H](N)CCCNC(=N)N)[C@@H](C)CC)[C@@H](C)CC)C(C)C)C(C)C)C(=O)N[C@H](C(=O)N[C@@H](CCCCN)C(=O)N[C@@H](C)C(=O)NCC(=O)N1CCC[C@H]1C(=O)N[C@@H](C)C(=O)N[C@H](C(=O)N[C@@H](C)C(=O)N[C@H](C(=O)N[C@H](C(=O)NCC(=O)N[C@@H](CCC(N)=O)C(=O)N[C@@H](C)C(=O)N[C@@H](C)C(=O)N[C@H](C(=O)N[C@H](C(=O)N[C@H](C(=O)N[C@@H](CCCCN)C(N)=O)C(C)C)C(C)C)[C@@H](C)O)C(C)C)C(C)C)C(C)C)[C@@H](C)CC,,"KCCM 11328, Mueller-Hinton broth","16 h, 37 °C",growth inhibition over 99%,> 64 µM
CN1C(=O)Cc2ccc(F)c(CCNCC[C@H]3CN(c4ccc5c(n4)NC(=O)CO5)C(=O)O3)c21,,ATCC 27853,,,0.5 µg/mL
CC[C@H](C)[C@H](NC(=O)[C@H](CC(C)C)NC(=O)[C@H](CCCNC(=N)N)NC(=O)[C@@H](N)CCCNC(=N)N)C(=O)N[C@@H](CCCNC(=N)N)C(=O)N[C@H](C(=O)N[C@@H](CC(=O)O)C(=O)N[C@H](C(=O)NCC(=O)N1CCC[C@H]1C(=O)N[C@H](C(=O)N[C@H](C(=O)N[C@@H](Cc1ccc(O)cc1)C(=O)N[C@@H](CC(=O)O)C(=O)N[C@@H](Cc1ccc(O)cc1)C(=O)N[C@@H](Cc1ccccc1)C(=O)N[C@@H](CCCCN)C(=O)N[C@@H](CC(=O)O)C(=O)N[C@@H](CCC(N)=O)C(=O)N[C@@H](CC(C)C)C(=O)N[C@@H](CC(C)C)C(=O)N[C@@H](CCCCN)C(=O)N[C@@H](CCCCN)C(N)=O)[C@@H](C)CC)[C@@H](C)CC)[C@@H](C)O)[C@@H](C)O,,"KCTC 1637, Mueller-Hinton broth",24 h,,> 128 µM
CC[C@H](C)[C@H](NC(=O)[C@H](Cc1ccccc1)NC(=O)[C@@H](NC(=O)[C@H](Cc1c[nH]c2ccccc12)NC(=O)[C@@H]1CCCN1C(=O)[C@@H](NC(=O)[C@H](C)N)[C@@H](C)CC)[C@@H](C)CC)C(=O)N[C@@H](Cc1ccccc1)C(=O)N[C@@H](CCCNC(=N)N)C(=O)N[C@@H](CC(C)C)C(=O)N[C@@H](CC(C)C)C(=O)N[C@@H](CCCNC(=N)N)C(=O)N[C@@H](CCCCN)C(=O)NCC(N)=O,broth microdilution,PAO1,"18 h, 37 °C",,> 15 µM
CC[C@H](C)[C@H](NC(=O)[C@H](CCCNC(=N)N)NC(=O)[C@H](CCCNC(=N)N)NC(=O)[C@H](CCCNC(=N)N)NC(=O)[C@H](CCCNC(=N)N)NC(=O)[C@H](CCCNC(=N)N)NC(=O)[C@@H](N)CCCNC(=N)N)C(=O)N[C@@H](CO)C(=O)N[C@@H](Cc1ccccc1)C(=O)N[C@@H](CC(C)C)C(=O)NCC(=O)N[C@@H](CO)C(=O)N[C@@H](CCCCN)C(=O)N[C@H](C(=O)N[C@H](C(=O)N[C@H](C(=O)N[C@@H](CC(C)C)C(=O)N[C@@H](CC(C)C)C(=O)N[C@@H](CCCCN)C(=O)N[C@@H](CCCNC(=N)N)C(=O)N[C@@H](CCCNC(=N)N)C(=O)N[C@@H](CCCNC(=N)N)C(=O)N[C@@H](CCCNC(=N)N)C(=O)N[C@@H](CCCNC(=N)N)C(N)=O)C(C)C)C(C)C)C(C)C,broth microdilution,ATCC 27853,highest value reported,,8 µM
CC1(C)S[C@@H]2[C@H](NC(=O)C(C(=O)O)c3ccccc3)C(=O)N2[C@H]1C(=O)O (some centres unmarked),,fpvB mutant,,,25 µg/mL
CC[C@H](C)[C@H](N)C(=O)N[C@@H](CO)C(=O)N[C@@H](Cc1ccccc1)C(=O)N[C@@H](CC(C)C)C(=O)NCC(=O)N[C@@H](CO)C(=O)N[C@@H](CCCCN)C(=O)N[C@H](C(=O)N[C@H](C(=O)N[C@H](C(=O)N[C@@H](CC(C)C)C(=O)N[C@@H](CC(C)C)C(=O)N[C@@H](CCCCN)C(=O)N[C@@H](CCCNC(=N)N)C(=O)N[C@@H](CCCNC(=N)N)C(=O)N[C@@H](CCCNC(=N)N)C(=O)N[C@@H](CCCNC(=N)N)C(=O)N[C@@H](CCCNC(=N)N)C(=O)N[C@@H](CCCNC(=N)N)C(=O)N[C@@H](CCCNC(=N)N)C(N)=O)C(C)C)C(C)C)C(C)C,broth microdilution,ATCC 27853,highest value reported,,8 µM
CC(C)(C)OCC1NC(=O)C(C(=O)NC(C(=O)NC2C(=O)N3C2SC(C)(C)C3C(=O)O)c2ccccc2)=C1O (centres unmarked),,pvdA mutant,,,25 µg/mL

# Excerpt of the above:
SMILES,assay,system,setting,scale,MIC
CC[C@H](C)[C@H](N)C(=O)N[C@@H](CO)C(=O)N[C@@H](Cc1ccccc1)C(=O)N[C@@H](CC(C)C)C(=O)NCC(=O)N[C@@H](CO)C(=O)N[C@@H](CCCCN)C(=O)N[C@H](C(=O)N[C@H](C(=O)N[C@H](C(=O)N[C@@H](CC(C)C)C(=O)N[C@@H](CC(C)C)C(=O)N[C@@H](CCCCN)C(=O)N[C@@H](CCCNC(=N)N)C(=O)N[C@@H](CCCNC(=N)N)C(=O)N[C@@H](CCCNC(=N)N)C(=O)N[C@@H](CCCNC(=N)N)C(=O)N[C@@H](CCCNC(=N)N)C(=O)N[C@@H](CCCNC(=N)N)C(=O)N[C@@H](CCCNC(=N)N)C(N)=O)C(C)C)C(C)C)C(C)C,broth microdilution,ATCC 27853,highest value reported,,8 µM
